Published values collected from several papers.
Compare with care: the assays were run in different laboratories. ± marks the error that the study gave.

COC[C@@]12CC[C@H](OC)[C@]34C(C([C@H](OC)[C@H]13)[C@]1(OC(C)=O)[C@H]3[C@@H](OC(=O)c5ccccc5)[C@](O)(C[C@H]34)[C@@H](OC)[C@@H]1O)N(C)C2 — half-life (Sprague-Dawley rat, plasma; oral, dose not given, with NADES in PCW extract): 3.57 ± 1.33 h
Cc1ccc(S(=O)(=O)Nc2c(N[C@H]3CC[C@H](NC(=O)Nc4ccc(F)c(Cl)c4)CC3)c(=O)c2=O)cc1 — half-life (rat, plasma; oral, 20 mg/kg): 1.96 h
CN1[C@H]2CC[C@@H]1[C@@H](C(=O)O)[C@@H](OC(=O)c1ccccc1)C2 — half-life (LC-MS/MS; Sprague-Dawley rat, whole blood; intraperitoneal, 20 mg/kg of cocaine): 2.7 ± 0.301 h
CSCC[C@H](NC(=O)COCCOCCNC(=O)COCCOCCNC(=O)CC[C@H](NC(=O)CCCCCCCCCCCCCCCCC(=O)O)C(=O)O)C(=O)N[C@H]1CSSC[C@@H](C(=O)NCC(=O)N[C@@H](CO)C(=O)NCC(=O)N[C@@H](CO)C(=O)N[C@@H](CC(=O)O)C(=O)N[C@@H](Cc2ccc(O)cc2)C(=O)N[C@@H](CCCCN)C(=O)N[C@@H](CC(=O)O)C(=O)N[C@@H](CC(=O)O)C(=O)N[C@@H](CC(=O)O)C(=O)N[C@@H](CC(=O)O)C(=O)N[C@@H](CCCCN)C(N)=O)NC(=O)[C@H](Cc2ccccc2)NC(=O)[C@@H]2CCCN2C(=O)[C@H](Cc2c[nH]c3ccccc23)NC(=O)[C@H](CC(C)C)NC(=O)[C@H](CCSC)NC(=O)[C@H](Cc2c[nH]cn2)NC(=O)[C@H](Cc2ccccc2)NC(=O)[C@H](Cc2c[nH]cn2)NC(=O)[C@H]([C@@H](C)O)NC(=O)[C@H](Cc2ccccc2)NC1=O — half-life (Sprague-Dawley rat, male, plasma; intravenous): 10.7 h
CC(C)[C@@H](CN1CC[C@@](C)(c2cccc(O)c2)[C@@H](C)C1)NC(=O)[C@@]1(C)Cc2ccc(O)cc2CN1 — half-life (rat, brain; intraperitoneal, 5 mg/kg): 30.7 h
COC(=O)[C@H]1[C@@H](OC(=O)c2ccccc2)C[C@@H]2CC[C@H]1N2C — half-life (LC-MS/MS; Sprague-Dawley rat, male, whole blood; intraperitoneal, 20 mg/kg): 0.498 ± 0.0297 h
N=C(N)NCCC[C@@H]1NC(=O)[C@H](CCCCNC(=O)c2ccc(CNC34CNCCNCC(N)(CNCCNC3)CNCCNC4)cc2)NC(=O)[C@@H](Cc2ccc(O)cc2)NC(=O)[C@H](CC(=O)O)NC(=O)CNC1=O [copper-64 labelled] — tissue uptake (microPET; male athymic nude mouse, PC-3 tumour, muscle; intravenous, 7.4 MBq, 2 h): 0.19 ± 0.03 %ID/g
CC(C)C[C@@H]1NC(=O)[C@H](CC(=O)O)NC(=O)[C@H](Cc2ccccc2)NC(=O)[C@H](Cc2c[nH]cn2)NC(=O)[C@H]([C@@H](C)O)NC(=O)[C@H](Cc2ccccc2)NC(=O)[C@@H](NC(=O)[C@H](C)NC(=O)COCCOCCNC(=O)COCCOCCNC(=O)CC[C@H](NC(=O)CCCCCCCCCCCCCCCCC(=O)O)C(=O)O)CSSC[C@@H](C(=O)O)NC(=O)[C@H](Cc2ccccc2)NC(=O)[C@@H]2CCCN2C(=O)[C@H](Cc2c[nH]c3ccccc23)NC(=O)[C@H](CC(C)C)NC1=O — half-life (Sprague-Dawley rat, male, plasma; intravenous): 4.17 h
[Se] — half-life (rat, plasma; intraperitoneal, 1 mg/kg, sodium selenate): 4.3 h
O=C(O)CCC(CP(=O)(O)O)C(=O)O (stereo not shown) — half-life (rat Wistar male, plasma; intraperitoneal, 100 mg/kg): 0.64 h
Cn1cccc1-c1cccnc1 — half-life (one-compartment model; rat, serum; iv, 1.0 mg/kg): 0.75 h
CN1CC[C@]23c4c5ccc(O[C@@H]6O[C@H](C(=O)O)[C@@H](O)[C@H](O)[C@H]6O)c4O[C@H]2[C@@H](O)C=C[C@H]3[C@H]1C5 — half-life (Sprague-Dawley rat, whole blood; intraperitoneal, 10 mg/kg heroin, single heroin dose alone): 1.29 ± 0.236 h
COc1ccc2c(c1)CN[C@@H](C(=O)N[C@H](CN1CC[C@@](C)(c3cccc(O)c3)[C@@H](C)C1)C(C)C)C2 — half-life (Sprague-Dawley rat, brain; intraperitoneal, 5 mg/kg): 76.2 h
Cc1ccc(C(=O)N(CCCN)[C@@H](c2oc3cc(Cl)ccc3c(=O)c2Cc2ccccc2)C(C)C)cc1 — maximum inhibition (human coronavirus OC43; virus-induced cell killing; MRC-5; maximum over 10 doses): 0%
CC(C)(C)[C@H](NC(=O)[C@H](CCONC(=N)N)NC(=O)Cc1ccc(CNC(=N)N)cc1)C(=O)N[C@@H](CCONC(=N)N)C(=O)NCc1ccc(C(=N)N)cc1 — half-life (Sprague Dawley rat, male, plasma; intraperitoneal, 2.5 mg/kg): 8 h
NCCOCC(=O)N1CCCC(C(=O)NCc2nc(-c3ccc(-c4ccc(F)cc4)cc3)cs2)C1 (stereo not shown) — half-life (male Sprague Dawley rat; intravenous, 1 mg/kg): 15 h
COC(=O)[C@@H]1[C@H]2CC[C@@H](C[C@@H]1O)N2C — half-life (LC-MS/MS; Sprague-Dawley rat, whole blood; intraperitoneal, 20 mg/kg of cocaine): 2.35 ± 0.119 h
CC(C)[C@@H](CN1CC[C@@](C)(c2cccc(O)c2)[C@@H](C)C1)NC(=O)[C@@H]1Cc2ccc(O)cc2CN1C — half-life (rat, brain; intraperitoneal, 5 mg/kg): 24.3 h
Cc1ccc(C(=O)c2cc(O)c(O)c([N+](=O)[O-])c2)cc1 — maximum inhibition (human coronavirus OC43; virus-induced cell killing; MRC-5; screen): 20.7%
O=[Se](=O)([O-])[O-].[Na+].[Na+] — half-life (rat; subcutaneous, 0.2 mg/kg): 5.15 h
COC[C@]12CN(C)[C@@H]3[C@@H]4[C@H](OC)[C@H]1[C@@]3([C@@H](OC)C[C@H]2O)[C@@H]1C[C@@]2(O)[C@H](OC(=O)c3ccccc3)[C@@H]1[C@]4(OC(C)=O)[C@@H](O)[C@@H]2OC — half-life (Sprague-Dawley rat, plasma; oral, dose not given, with H in PCW extract): 3.98 ± 1.42 h
COc1cccc([C@]2(C)CCN(C[C@@H](NC(=O)[C@H]3Cc4ccc(O)cc4CN3)C(C)C)C[C@@H]2C)c1 — half-life (rat, brain; intraperitoneal, 5 mg/kg): 29.5 h

A few entries again:
CC(C)(C)[C@H](NC(=O)[C@H](CCONC(=N)N)NC(=O)Cc1ccc(CNC(=N)N)cc1)C(=O)N[C@@H](CCONC(=N)N)C(=O)NCc1ccc(C(=N)N)cc1 — half-life (Sprague Dawley rat, male, plasma; intraperitoneal, 2.5 mg/kg): 8 h
NCCOCC(=O)N1CCCC(C(=O)NCc2nc(-c3ccc(-c4ccc(F)cc4)cc3)cs2)C1 (stereo not shown) — half-life (male Sprague Dawley rat; intravenous, 1 mg/kg): 15 h
COC(=O)[C@@H]1[C@H]2CC[C@@H](C[C@@H]1O)N2C — half-life (LC-MS/MS; Sprague-Dawley rat, whole blood; intraperitoneal, 20 mg/kg of cocaine): 2.35 ± 0.119 h
